Published values gathered from unrelated publications.
Protocols differ between the studies behind these lines. Values joined by “and” are separate records of one study, mostly repeats; a detail may differ. ± marks the error that the study gave.
SERPINC1: Antithrombin-III (SERPINC1, Homo sapiens, UniProt P01008)
Chain of UniProt P01008 (whole entry, looked up): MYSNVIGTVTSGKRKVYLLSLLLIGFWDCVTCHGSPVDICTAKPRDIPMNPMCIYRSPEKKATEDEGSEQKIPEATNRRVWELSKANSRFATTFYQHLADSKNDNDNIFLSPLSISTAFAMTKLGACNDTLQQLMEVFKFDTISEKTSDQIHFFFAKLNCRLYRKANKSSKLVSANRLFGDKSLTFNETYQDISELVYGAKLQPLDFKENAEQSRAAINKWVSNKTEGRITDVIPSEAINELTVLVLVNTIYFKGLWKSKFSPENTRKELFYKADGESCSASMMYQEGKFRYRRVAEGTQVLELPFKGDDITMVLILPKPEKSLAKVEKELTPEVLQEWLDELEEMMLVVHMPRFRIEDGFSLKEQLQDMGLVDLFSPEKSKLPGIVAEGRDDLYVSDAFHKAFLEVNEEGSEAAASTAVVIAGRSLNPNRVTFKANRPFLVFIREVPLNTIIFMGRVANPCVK
Chain of UniProt P15387 (whole entry, looked up): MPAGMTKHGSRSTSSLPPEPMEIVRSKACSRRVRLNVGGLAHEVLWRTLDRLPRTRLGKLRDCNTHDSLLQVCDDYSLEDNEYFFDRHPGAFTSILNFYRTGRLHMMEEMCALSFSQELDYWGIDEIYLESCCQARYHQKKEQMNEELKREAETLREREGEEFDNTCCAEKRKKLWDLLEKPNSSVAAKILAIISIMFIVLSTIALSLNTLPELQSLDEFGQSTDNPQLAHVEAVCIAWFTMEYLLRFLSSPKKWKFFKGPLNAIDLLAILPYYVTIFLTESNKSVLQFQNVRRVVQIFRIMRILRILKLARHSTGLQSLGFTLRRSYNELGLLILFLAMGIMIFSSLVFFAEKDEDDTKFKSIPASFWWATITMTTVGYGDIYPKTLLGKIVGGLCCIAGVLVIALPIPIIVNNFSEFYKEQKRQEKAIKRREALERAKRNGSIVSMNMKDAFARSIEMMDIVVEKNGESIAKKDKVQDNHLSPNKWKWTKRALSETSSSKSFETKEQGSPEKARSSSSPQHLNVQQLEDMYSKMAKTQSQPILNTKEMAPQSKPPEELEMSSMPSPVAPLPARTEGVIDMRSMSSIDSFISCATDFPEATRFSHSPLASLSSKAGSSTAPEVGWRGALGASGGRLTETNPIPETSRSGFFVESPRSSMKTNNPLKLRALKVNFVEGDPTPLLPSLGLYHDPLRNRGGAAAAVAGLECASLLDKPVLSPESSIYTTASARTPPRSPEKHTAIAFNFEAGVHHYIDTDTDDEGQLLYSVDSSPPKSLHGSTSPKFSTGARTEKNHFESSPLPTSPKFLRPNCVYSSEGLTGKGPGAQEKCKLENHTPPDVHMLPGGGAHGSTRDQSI
Chain of UniProt P40337 (whole entry, looked up): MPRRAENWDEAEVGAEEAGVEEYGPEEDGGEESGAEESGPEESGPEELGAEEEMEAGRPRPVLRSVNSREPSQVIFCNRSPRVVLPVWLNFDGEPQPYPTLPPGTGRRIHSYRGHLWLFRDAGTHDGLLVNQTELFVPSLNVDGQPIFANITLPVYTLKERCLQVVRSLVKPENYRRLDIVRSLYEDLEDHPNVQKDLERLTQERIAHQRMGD
Chain of UniProt P54619 (whole entry, unmodified, looked up): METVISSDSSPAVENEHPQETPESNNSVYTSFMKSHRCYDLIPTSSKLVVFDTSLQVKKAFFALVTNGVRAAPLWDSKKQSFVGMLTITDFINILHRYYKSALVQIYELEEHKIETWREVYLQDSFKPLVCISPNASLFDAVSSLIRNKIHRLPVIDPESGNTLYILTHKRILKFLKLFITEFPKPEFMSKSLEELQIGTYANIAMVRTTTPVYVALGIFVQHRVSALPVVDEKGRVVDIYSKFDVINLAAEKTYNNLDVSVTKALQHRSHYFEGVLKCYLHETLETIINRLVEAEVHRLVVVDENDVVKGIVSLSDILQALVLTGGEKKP
Chain of UniProt P10636 (whole entry, looked up): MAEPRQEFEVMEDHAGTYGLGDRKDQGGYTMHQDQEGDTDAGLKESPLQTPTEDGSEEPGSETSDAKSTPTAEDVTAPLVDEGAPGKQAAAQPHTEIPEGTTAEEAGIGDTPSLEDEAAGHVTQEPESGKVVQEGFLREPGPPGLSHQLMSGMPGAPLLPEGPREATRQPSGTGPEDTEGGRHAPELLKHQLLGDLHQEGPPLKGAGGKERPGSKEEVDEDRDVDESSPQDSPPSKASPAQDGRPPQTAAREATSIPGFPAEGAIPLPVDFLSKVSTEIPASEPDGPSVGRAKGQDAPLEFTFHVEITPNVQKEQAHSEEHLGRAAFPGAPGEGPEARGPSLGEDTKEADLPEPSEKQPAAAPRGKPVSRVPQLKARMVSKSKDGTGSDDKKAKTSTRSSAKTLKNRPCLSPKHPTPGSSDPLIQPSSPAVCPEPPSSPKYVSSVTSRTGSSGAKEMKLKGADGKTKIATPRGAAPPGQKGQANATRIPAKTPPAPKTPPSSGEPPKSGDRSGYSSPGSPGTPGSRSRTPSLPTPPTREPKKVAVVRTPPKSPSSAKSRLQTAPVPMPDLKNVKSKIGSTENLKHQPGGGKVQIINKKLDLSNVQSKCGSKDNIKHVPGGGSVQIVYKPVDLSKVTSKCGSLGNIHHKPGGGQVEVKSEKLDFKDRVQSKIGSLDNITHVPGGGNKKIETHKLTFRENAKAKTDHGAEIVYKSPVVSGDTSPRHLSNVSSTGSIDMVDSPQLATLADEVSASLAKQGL
Chain of UniProt Q9Y478 (whole entry, unmodified, looked up): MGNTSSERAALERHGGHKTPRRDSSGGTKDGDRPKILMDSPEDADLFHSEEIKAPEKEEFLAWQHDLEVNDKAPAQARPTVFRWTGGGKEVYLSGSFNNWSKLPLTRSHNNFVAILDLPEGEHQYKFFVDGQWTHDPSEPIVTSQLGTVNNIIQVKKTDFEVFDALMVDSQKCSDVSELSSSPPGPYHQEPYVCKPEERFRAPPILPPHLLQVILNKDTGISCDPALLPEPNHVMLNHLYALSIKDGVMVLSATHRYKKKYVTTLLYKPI
Chain of UniProt Q86W56 (whole entry, unmodified, looked up): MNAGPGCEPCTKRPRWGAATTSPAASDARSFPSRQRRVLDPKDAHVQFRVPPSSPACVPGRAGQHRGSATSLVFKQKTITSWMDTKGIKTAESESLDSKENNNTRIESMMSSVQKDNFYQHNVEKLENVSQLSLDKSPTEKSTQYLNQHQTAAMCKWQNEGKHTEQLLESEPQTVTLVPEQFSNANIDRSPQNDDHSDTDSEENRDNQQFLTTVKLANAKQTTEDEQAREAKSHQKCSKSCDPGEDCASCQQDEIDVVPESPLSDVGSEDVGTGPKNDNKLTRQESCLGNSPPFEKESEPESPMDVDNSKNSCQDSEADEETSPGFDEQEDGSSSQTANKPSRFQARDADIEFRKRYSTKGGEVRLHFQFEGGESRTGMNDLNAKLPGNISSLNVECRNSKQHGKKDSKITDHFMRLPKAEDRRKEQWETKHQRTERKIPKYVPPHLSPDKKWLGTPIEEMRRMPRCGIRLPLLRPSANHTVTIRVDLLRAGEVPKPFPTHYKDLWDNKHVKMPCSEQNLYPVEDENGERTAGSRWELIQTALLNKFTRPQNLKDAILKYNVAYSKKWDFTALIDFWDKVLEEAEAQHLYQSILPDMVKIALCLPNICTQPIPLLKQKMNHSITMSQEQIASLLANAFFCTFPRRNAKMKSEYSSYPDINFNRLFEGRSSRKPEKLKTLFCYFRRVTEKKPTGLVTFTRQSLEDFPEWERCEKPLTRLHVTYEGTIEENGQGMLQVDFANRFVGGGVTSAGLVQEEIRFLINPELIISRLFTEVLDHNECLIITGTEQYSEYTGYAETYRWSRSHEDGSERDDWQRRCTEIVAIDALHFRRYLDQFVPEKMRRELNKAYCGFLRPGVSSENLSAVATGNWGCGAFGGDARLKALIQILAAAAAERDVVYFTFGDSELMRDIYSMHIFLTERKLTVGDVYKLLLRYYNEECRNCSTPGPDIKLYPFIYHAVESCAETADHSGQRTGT
Chain of UniProt Q9Y6W8 (whole entry, looked up): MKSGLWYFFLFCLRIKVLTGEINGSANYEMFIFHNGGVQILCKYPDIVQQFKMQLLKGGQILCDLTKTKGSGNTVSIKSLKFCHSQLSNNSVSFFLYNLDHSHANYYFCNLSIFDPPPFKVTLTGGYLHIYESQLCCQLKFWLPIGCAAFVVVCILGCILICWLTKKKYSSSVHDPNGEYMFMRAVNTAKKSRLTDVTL
Chain of UniProt P37634 (whole entry, looked up): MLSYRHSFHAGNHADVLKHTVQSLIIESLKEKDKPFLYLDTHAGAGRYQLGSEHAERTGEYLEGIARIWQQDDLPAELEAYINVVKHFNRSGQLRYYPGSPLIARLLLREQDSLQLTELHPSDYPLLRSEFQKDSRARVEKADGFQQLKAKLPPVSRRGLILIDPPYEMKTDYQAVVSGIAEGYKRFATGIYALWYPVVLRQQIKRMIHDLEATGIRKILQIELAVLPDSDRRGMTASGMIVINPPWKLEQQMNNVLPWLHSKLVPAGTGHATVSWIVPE

The Kd of `Cc1ccc(S/N=C/c2c(O)ccc3ccccc23)cc1` is reported as ~64.4 µM (Poly(ADP-ribose) glycohydrolase (Homo sapiens, UniProt Q86W56, N869A); isothermal titration calorimetry; mutant protein).
The Kd of `Cc1c(OCc2ccc(Cl)c(Cl)c2)ccc(-c2cc[nH]n2)c1O` is reported as 185 µM (Inducible T-cell costimulator (Homo sapiens, UniProt Q9Y6W8); binding, SPR).
`CCCCCCCCN(CCC(=O)Nc1ccccc1)C(=O)c1ccccn1` has a Kd of 7.2 µM (Albumin (ALB, Homo sapiens, UniProt P02768); binding, immobilised HSA beads; PBS; 12 min, pH 7.4).
For `Nc1ncnc2c1ncn2[C@@H]1O[C@@H](CN(CCCNc2ncnc3c2ncn3[C@H]2O[C@@H](CO)[C@@H](O)[C@H]2O)CC[C@H](N)C(=O)O)[C@@H](O)[C@H]1O`, the Kd was 30 ± 4 µM (Ribosomal RNA large subunit methyltransferase J (rlmJ, Escherichia coli, UniProt P37634)).
With `Cc1ccc(Oc2nc3cc(-c4ccc5c(ccn5C)c4)c(Cl)cc3[nH]2)cc1C(=O)O` the Kd was > 25 µM (AMP-activated protein kinase (AMPK) alpha-1/beta-1/gamma-1, beta1 residues 185–270 (PRKAG1/PRKAA1/PRKAB1, Homo sapiens, UniProt P54619+Q13131+Q9Y478); biolayer interferometry; AMPK complex ΔCBM).
For `CCCn1c(=O)c2[nH]c(-c3ccc(OCC(=O)NCCNC(=O)CCCCCNC(=O)CCCCCNS(=O)(=O)c4cccc5c(N(C)C)cccc45)cc3)nc2n(CCC)c1=O`, the Kd was 0.102 µM (ADORA1 (Homo sapiens, UniProt P30542); CRE reporter gene, antagonist; CHO-A1; Gs response, PTX-pretreated overnight, together with: NECA and forskolin).
For `N#Cc1c(Cl)ccc(Oc2ccc(Cl)cc2Cl)c1O`, the Kd was 0.0099 ± 0.001 µM (Enoyl-acyl carrier reductase, with NAD+ (ENR, Toxoplasma gondii, UniProt Q6UCJ9); thermal shift; together with: NAD+ 100 µM).
`CN(C)c1cc2ccccc2c(N)n1` gave a Kd of 9.6 ± 1.3 µM (CUGBP Elav-like family member 1, RRM1/2 domains (CELF1, Homo sapiens, UniProt Q92879); isothermal titration calorimetry; 25 °C).
`CC1=CC(C)=[N+]2C1=Cc1ccc(CCC(=O)NCCOCCOCCOCCOCC(=O)N[C@H](C(=O)N3C[C@H](O)C[C@H]3C(=O)NCc3ccc(-c4scnc4C)cc3)C(C)(C)C)n1[B-]2(F)F` has a Kd of 0.101 µM (von Hippel-Lindau disease tumor suppressor, with elongin B/C (VHL, Homo sapiens, UniProt P40337); binding, fluorescence polarization; 90 min, total binding).
`CC(=O)N[C@@H]1[C@@H](O[C@@H]2O[C@H](C(=O)O)[C@@H](O[C@@H]3O[C@H](COS(=O)(=O)O)[C@@H](OS(=O)(=O)O)[C@H](O[C@@H]4O[C@H](C(=O)O)[C@@H](OS(=O)(=O)O)[C@H](OS(=O)(=O)O)[C@H]4OS(=O)(=O)O)[C@H]3NC(C)=O)[C@H](OS(=O)(=O)O)[C@H]2OS(=O)(=O)O)[C@H](OS(=O)(=O)O)[C@@H](COS(=O)(=O)O)O[C@H]1N=[N+]=[N-]` has a Kd of 3.76 µM (SERPINC1; ligand displacement, FP).
`COc1cccc(CC(C)C(=O)Nc2ccc3[nH]c(-c4cscn4)nc3c2)c1` (stereo not drawn) gave a Kd of 0.0062 ± 0.0012 µM (Kcnb1 (Rattus norvegicus, UniProt P15387); ion current, blocker, patch clamp).
The Kd of `CN(C)CCNC(=O)c1cccc2c(NCCCCc3c(N)nc(N)nc3N)c3ccccc3nc12` is reported as 118 µM and > 100 µM (RNA with A–A mismatch; binding, ITC; 25 °C, 1).
`OC(Cc1cc(-c2ccc(C(O)C(F)(F)F)s2)sc1-c1ccc(-c2sc(-c3ccc(C(O)C(F)(F)F)s3)cc2CC(O)C(F)(F)F)s1)C(F)(F)F` (stereo not drawn) gave a Kd of 0.066 µM (Microtubule-associated protein tau, 0N4R isoform, aggregated (MAPT, Homo sapiens, UniProt P10636); soluble tau aggregate binding, fluorescence; 20% sucrose gradient fraction).
For `COc1cc2c(cc1-c1c(C)noc1C)ncc1[nH]c(=O)n([C@H](C)c3ccccn3)c12`, the Kd was 33 ± 25 µM (Bromodomain factor 2 (Trypanosoma brucei brucei, UniProt Q38AM1); SPR; Trypanosoma brucei).
With `CC(=O)N[C@@H]1[C@@H](O[C@@H]2O[C@H](C(=O)O)[C@@H](O[C@@H]3O[C@H](COS(=O)(=O)O)[C@@H](OS(=O)(=O)O)[C@H](O[C@@H]4O[C@H](C(=O)O)[C@@H](O[C@@H]5O[C@H](COS(=O)(=O)O)[C@@H](OS(=O)(=O)O)[C@H](O[C@@H]6O[C@H](C(=O)O)[C@@H](OS(=O)(=O)O)[C@H](OS(=O)(=O)O)[C@H]6OS(=O)(=O)O)[C@H]5NC(C)=O)[C@H](OS(=O)(=O)O)[C@H]4OS(=O)(=O)O)[C@H]3NC(C)=O)[C@H](OS(=O)(=O)O)[C@H]2OS(=O)(=O)O)[C@H](OS(=O)(=O)O)[C@@H](COS(=O)(=O)O)O[C@H]1N=[N+]=[N-]` the Kd was 0.65 µM (SERPINC1; ligand displacement, FP).

For quick reference, copied from above:
The Kd of `Cc1ccc(S/N=C/c2c(O)ccc3ccccc23)cc1` is reported as ~64.4 µM (Poly(ADP-ribose) glycohydrolase (Homo sapiens, UniProt Q86W56, N869A); isothermal titration calorimetry; mutant protein).
For `N#Cc1c(Cl)ccc(Oc2ccc(Cl)cc2Cl)c1O`, the Kd was 0.0099 ± 0.001 µM (Enoyl-acyl carrier reductase, with NAD+ (ENR, Toxoplasma gondii, UniProt Q6UCJ9); thermal shift; together with: NAD+ 100 µM).
